Measured values from different studies.
Each line is one published result; not all experiments were run side by side.

SMILES	assay	test system	conditions	measurement	result
CC(C)C[C@H]1NC(=O)[C@H](NC(=O)CN)CSSC[C@H]2NC(=O)[C@H]3CSSC[C@H](C(=O)N[C@H](CC(N)=O)C(=O)N[C@H](Cc4ccccc4)C(=O)N[C@H](CO)C(=O)N[C@H](Cc4ccccc4)C(N)=O)NC(=O)[C@@H](CC(C)C)NC(=O)[C@@H](CCCCN)NC(=O)[C@@H](Cc4ccccc4)NC(=O)[C@@H](CC(C)C)NC(=O)[C@@H](CCCCN)NC(=O)[C@@H](CO)NC(=O)[C@@H](CSSC[C@@H](NC(=O)[C@@H](CCCCN)NC(=O)[C@@H](Cc4c[nH]c5ccccc45)NC(=O)[C@@H](Cc4c[nH]c5ccccc45)NC(=O)[C@@H](Cc4ccccc4)NC(=O)[C@@H](CCC(=O)O)NC1=O)C(=O)N[C@H](CC(N)=O)C(=O)N1CCC[C@@H]1C(=O)N[C@H](CC(N)=O)C(=O)N[C@H](CC(=O)O)C(=O)N[C@H](CC(=O)O)C(=O)N[C@H](CCCCN)C(=O)N3)NC(=O)[C@@H](CCCCN)NC(=O)[C@@H](CC(C)C)NC(=O)[C@@H](CCCCN)NC(=O)[C@H]1CCCN1C(=O)[C@@H](CCCNC(=N)N)NC2=O	LC-MS/MS	D2.mdx mice	subcutaneous, 10 mg/kg, over four weeks	half-life	168 h
CCC[C@@H]1O[C@@H]2C[C@H]3[C@@H]4C[C@H](F)C5=CC(=O)CC[C@]5(C)[C@@]4(F)[C@@H](O)C[C@]3(C)[C@]2(C(=O)CO)O1	refers to: parent steroid	CD1 mice, plasma	intravenous, 0.15 mg/kg, with: budesonide 0.2 mg/kg	half-life	0.33 h
CC(C)C[C@H](NC(=O)c1cc2c(OC(F)(F)F)cccc2[nH]1)C(=O)N[C@@H](C[C@@H]1CCNC1=O)C(=O)c1nc2ccccc2s1	–	Jcl:ICR mice, female	intravenous, 2.0 mg/kg	half-life	0.833 to 1 h
CC(C)[C@H]1NC(=O)C[C@H]2/C=C/CCSSC[C@@H](NC1=O)C(=O)N[C@H](Cc1cccc3ccccc13)C(=O)NCC(=O)O2	–	BALB/cAJcl-nu/nu mice, blood	dose not given, intravenous, intraperitoneal and oral	half-life	≤ 1 h
CSCC[C@H](N)C(=O)N[C@@H](Cc1c[nH]cn1)C(=O)N[C@@H](CO)C(=O)N[C@@H](CC(=O)O)C(=O)N[C@@H](C)C(=O)N[C@H](C(=O)N[C@@H](Cc1ccccc1)C(=O)N[C@H](C(=O)N[C@@H](CC(=O)O)C(=O)N[C@@H](CCC(N)=O)C(=O)N[C@@H](Cc1ccc(O)cc1)C(=O)N[C@H](C(=O)N[C@@H](CCCNC(=N)N)C(=O)N[C@@H](CC(C)C)C(=O)N[C@@H](CCCNC(=N)N)C(=O)N[C@@H](CCCCN)C(=O)N[C@@H](CCC(N)=O)C(=O)N[C@@H](CC(C)C)C(=O)N[C@@H](C)C(=O)N[C@@H](C)C(=O)N[C@@H](CCCCN)C(=O)N[C@@H](CCCCN)C(=O)N[C@@H](Cc1ccc(O)cc1)C(=O)N[C@@H](CC(C)C)C(=O)N[C@@H](CCC(N)=O)C(=O)N[C@@H](CO)C(=O)N[C@@H](CC(C)C)C(=O)N[C@@H](CCCCN)C(=O)N[C@@H](CCC(N)=O)C(=O)N[C@@H](CCCCN)C(=O)N[C@@H](CCCNC(=N)N)C(=O)N[C@@H](Cc1ccc(O)cc1)C(=O)O)[C@@H](C)O)[C@@H](C)O)C(C)C	–	db/db mice, male, blood	intravenous, 1.0 mg/kg	half-life	1.98 h
C=Cc1c(C)c2cc3nc(c(CC(=O)O)c4[nH]c(cc5nc(cc1[nH]2)C(C)=C5CC)c(C)c4C(=O)O)[C@@H](CCC(=O)NCCCC[C@H](NC(C)=O)C(=O)N[C@@H](Cc1ccccc1)C(=O)N[C@@H](Cc1ccccc1)C(=O)N[C@H](C(=O)N[C@@H](CC(C)C)C(=O)N[C@@H](CCCCN)C(=O)N[C@@H](CO)C(=O)NCC(=O)N[C@@H](CCC(N)=O)C(=O)N[C@@H](Cc1ccc(O)cc1)C(=O)N[C@@H](C)C(=O)N[C@@H](CO)C(=O)N[C@@H](Cc1ccc(O)cc1)C(=O)N[C@@H](Cc1c[nH]cn1)C(=O)N[C@@H](CS)C(=O)N[C@@H](Cc1c[nH]c2ccccc12)C(=O)N[C@@H](CS)C(=O)N[C@@H](Cc1c[nH]c2ccccc12)C(=O)N[C@@H](CCCNC(=N)N)C(=O)N[C@@H](CC(=O)O)C(=O)N1CCC[C@H]1C(=O)NCC(=O)N[C@@H](CCCNC(=N)N)C(=O)N[C@@H](CO)C(=O)NCC(=O)NCC(=O)N[C@@H](CO)C(=O)N[C@@H](CCCCN)C(N)=O)C(C)C)[C@@H]3C	–	tumour-free mice, plasma	iv, 13 mg/kg	half-life beta	22.2 h
CCn1ccc(-c2cc(-c3cnn(C)c3)cc([C@@H](C)NC(=O)c3cc(OCCN(C)C)ccc3C)c2)n1	–	C57BL/6J mice, male, plasma	oral, 50 mg/kg	half-life	2.01 h
Cc1cc(Oc2nc(N3CC[C@@H](c4ccncc4)C3)ncc2F)[nH]n1	–	BALB/c mice female	oral, 5 mg/kg	half-life	0.76 h
COc1cccc2[nH]c(C(=O)N[C@@H](CC(C)C)C(=O)N[C@@H](C[C@@H]3CCNC3=O)C(=O)c3nc4ccccc4s3)cc12	–	Jcl:ICR mice, female	intravenous, 2.0 mg/kg	half-life	< 0.383 h
O=C(CN1CCN(c2cc3c(cc2F)c(=O)c(C(=O)O)cn3C2CC2)CC1)Nc1ccc(Cl)cc1	–	female BALB/c mice, plasma	intravenous, 1.25 mg/kg	half-life	5.68 h
CN(CC(=O)N(Cc1ccc(C2CCCCC2)cc1)c1ccc(C(=O)O)cc1)S(=O)(=O)c1c(F)c(F)c(F)c(F)c1F	–	CD-1 mice, plasma	intraperitoneal, 20 mg/kg	half-life	0.25 h

A few entries again:
SMILES	assay	test system	conditions	measurement	result
CCn1ccc(-c2cc(-c3cnn(C)c3)cc([C@@H](C)NC(=O)c3cc(OCCN(C)C)ccc3C)c2)n1	–	C57BL/6J mice, male, plasma	oral, 50 mg/kg	half-life	2.01 h
